Measured values pooled from the literature.
Each line is one published result; not all experiments were run side by side.

`CC(C)C[C@@H](NC(=O)[C@H](C)NC(=O)CNC(=O)[C@@H](NC=O)C(C)C)C(=O)N[C@@H](C)C(=O)N[C@@H](C(=O)N[C@H](C(=O)N[C@@H](C(=O)N[C@@H](Cc1c[nH]c2ccccc12)C(=O)N[C@H](CC(C)C)C(=O)N[C@@H](Cc1c[nH]c2ccccc12)C(=O)N[C@H](CC(C)C)C(=O)N[C@@H](Cc1c[nH]c2ccccc12)C(=O)N[C@@H](C(=O)N[C@@H](Cc1c[nH]c2ccccc12)C(=O)NCCO)C(C)C)[C@H](C)O)C(C)C)C(C)C` has an MIC of 8.6 µM (Streptococcus agalactiae; broth microdilution; JCM 5671).
`N=C(N)c1ccc(OCc2cc(COc3ccc(C(=N)N)cc3)cc(-c3ccccc3)c2)cc1` gave an MIC of over 100 µg/mL (Escherichia coli; BW25113; compound alone, added: erythromycin checkerboard).
With `CCCCCCCCCC(=O)N[C@@H](Cc1c[nH]c2ccccc12)C(=O)N[C@H](CC(N)=O)C(=O)N[C@@H](CC(=O)O)C(=O)N[C@@H]1C(=O)NCC(=O)N[C@@H](CCCN)C(=O)N[C@@H](CC(=O)O)C(=O)N[C@H](C)C(=O)N[C@@H](CC(=O)O)C(=O)NCC(=O)N[C@H](CO)C(=O)N[C@@H]([C@H](C)CC(=O)O)C(=O)N[C@@H](CC(=O)c2ccccc2N)C(=O)O[C@@H]1C` the MIC was 1 µg/mL (Staphylococcus aureus; SH1000; added: N-acetylsphingosine, molar ratio 1).
For `CNC(C)C1CCC(N)C(OC2C(N)CC(N)C(OC3OCC(C)(O)C(NC)C3O)C2O)O1` (centres unmarked), the MIC was 4 µg/mL (Pseudomonas aeruginosa; clinical isolate RKI-No_628/16).
For `CC(=O)NC[C@H]1CN(c2ccc(N3CCOCC3)c(F)c2)C(=O)O1`, the MIC was 2.96 µM (Enterococcus faecium; ATCC 700221).
`Cc1c(CN(C)C(=O)/C=C/c2cnc3c(c2)CCC(=O)N3)oc2ccccc12` has an MIC of over 32 µg/mL (Escherichia coli; broth microdilution; AR-0162).
For `N=C(N)c1ccc(OCc2ccccc2COc2ccc(C(=N)N)cc2)cc1`, the MIC was 50 µg/mL (Escherichia coli; W3110; in combination, checkerboard, added: rifampicin).
`Cc1c(CN(C)C(=O)/C=C/c2cnc3c(c2)CC(NC(=O)OC(C)(C)C)C(=O)N3)oc2ccccc12` (centres unmarked) gave an MIC of over 32 µg/mL (Acinetobacter baumannii; broth microdilution; AR-0273).
The MIC of `Cc1ccc(CCC(=O)Nc2nnc(S(N)(=O)=O)s2)cc1` is reported as 0.046 µM (Enterococcus faecium; NR-31970).
`CC1(C)S[C@@H]2[C@H](NC(=O)[C@H](N)c3ccccc3)C(=O)N2[C@H]1C(=O)O` gave an MIC of over 16 µg/mL (Pseudomonas aeruginosa; broth microdilution; clinical isolate RKI-No 485/15-1).
With `CC1(C)SC2C(NC(=O)C(NC(=O)C3=C(O)C4CCCN4C3=O)c3ccccc3)C(=O)N2C1C(=O)O` (centres unmarked) the MIC was 12.5 µg/mL (Escherichia coli; broth microdilution; ATCC 25922 wild type; no clavulanic acid).

Some of these lines once more:
For `CC(=O)NC[C@H]1CN(c2ccc(N3CCOCC3)c(F)c2)C(=O)O1`, the MIC was 2.96 µM (Enterococcus faecium; ATCC 700221).
